Experimental data from different studies.
Parts stem from different laboratories: compare values within a part only.

Series 1 — technique: protein-binding microarray; molecule type: double-stranded DNA, one strand shown; matrix: in vitro; concentration: 940 nM top; notes: 60-bp whole probe; with: salmon DNA 0.4 mg/ml; baseline: random background probes; direction: higher = stronger binding; constant ends, left off below: GCCTAGCAC … GTCTTGATTCGCTTGACGCTGCTG
Target: Interferon regulatory factor 5, full length, phosphomimetic (IRF5, Homo sapiens, UniProt Q13568-2, residues 1-514, S451D/S453D/S456D/S462D)
| Sequence | fitted relative affinity [z-score] |
| --- | --- |
| GACGATTTCGTGTTTCGAGACGTGCTA | 0.595 |
| TCTTTTTTTTCTTTAAAAGTGTGCTAG | 1.07 |
| GACGATTTCAGACTCGAGACGTGCTAG | -0.025 |
| TTAGAACAGAGTATCGATTAGTGCTAG | 3.02 |
| GACGATTTCAGTTTCGGGACGTGCTAG | 5.56 |
| GACGATTCCAGATTCGAGACGTGCTAG | -0.00743 |

Series 2 — technique: protein binding microarray; molecule type: double-stranded DNA, one strand shown; matrix: in vitro; concentration: not given; baseline: not given; direction: higher = stronger binding
Target: Histone acetyltransferase KAT6A, winged helix 2, GST fusion (KAT6A, Homo sapiens, UniProt Q92794, residues 85-181)
Notes: 8-mer, flanks averaged, mean of 2 arrays, mostly near background
Construct (chain): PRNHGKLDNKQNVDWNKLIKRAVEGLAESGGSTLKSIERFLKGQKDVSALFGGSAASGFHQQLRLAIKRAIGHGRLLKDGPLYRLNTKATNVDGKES
| Sequence | E-score |
| --- | --- |
| AAGTCAAA | -0.0754 |
| AGAGCTCC | -0.0438 |
| ATGTCACA | 0.0036 |
| AGCCCCGG | 0.212 |
| CGTTTGAA | -0.0442 |
| CAACCAAC | -0.0795 |
| GAATTAGA | 0.106 |
| ACGCGGAT | 0.165 |

Series 3 — technique: RNA Bind-n-Seq; molecule type: RNA; matrix: in vitro; concentration: 20 nM; notes: 6-mer, flanks averaged, single round; with: 150 mM LiCl; baseline: input library; direction: higher = stronger binding
Target: TAR DNA-binding protein 43, full length, His tag (TARDBP, Homo sapiens, UniProt Q13148, residues 1-414)
| Sequence | 6-mer enrichment (R) |
| --- | --- |
| GUCUUC | 0.867 |
| CGCUGA | 0.855 |
| ACAAUC | 0.806 |
| GUGGCA | 1.09 |
| AAGGUU | 0.925 |

Other studies, line by line
| Substance | target | test | system | setting | how to read | endpoint | result |
| --- | --- | --- | --- | --- | --- | --- | --- |
| PhoQ, residues 284 288 289 292 302 303 SSYNSA | PhoP, residues 12 14 15 18 19 NYFTV (Escherichia coli, UniProt P23836) | Sort-seq, measured: YFP reporter | E. coli | PhoQ-PhoP variant library, with: 10 µM Mg2+ | baseline: high Mg2+ state, higher = stronger signaling | fold induction | 2.21 |

For quick reference, copied from above (series 2):
| Sequence | E-score |
| --- | --- |
| AGCCCCGG | 0.212 |
| CGTTTGAA | -0.0442 |
